Measured values of several laboratories.
Lines come from different studies, so protocols differ. “And” joins repeats or separate records; there may be more than shown.
Target: Vascular endothelial growth factor receptor 1 (FLT1, Homo sapiens, UniProt P17948)

Structure (SMILES) | test | conditions | scale | quantity | result
Cc1cccc(O[C@H]2CCC[C@@H](C(C)CNCc3ccncc3)C2)c1 (relative stereo) | cell-free assay | 10 µM | – | inhibition | 3%
O=C=[N][Ru-4]123([n]4c5ccc(O)cc5c5c6c(c7cc(F)c[n+]1c7c54)C(=O)NC6=O)[S+]1CC[S+]2CC[S+]3CC1 (stereo not drawn) | enzyme activity | 100 nM, human enzyme, together with: 10 µM ATP | reference: untreated | remaining activity | 64%
CCn1cc(C(=O)O)c(=O)c2c(N)c(F)c(NC3CCCCC3)cc21 | kinase activity | 0.1 µM, together with: ATP at Km | – | inhibition | 14.8%
Cc1cccc(-c2ccc3nc(NC(=O)C4CCCCC4)nn3c2)c1 | enzyme activity, Dundee kinase panel | 10 µM | – | remaining activity | 53%
C=CC(=O)Nc1cccc(-c2cnc3[nH]cc(C(=O)NC(C)(C)C)c3n2)c1 | enzyme activity, inhibitor | 0.1 µM | – | inhibition | 4%
CN1CCN(c2ccc(Nc3ncc(Cl)c(Nc4ccccc4P(C)(C)=O)n3)cc2Br)CC1 | enzyme activity, inhibitor | 0.1 µM | – | inhibition | 50.1%
Nc1ncc(-c2cc(-c3cnn(CC(F)(F)F)c3)ncc2F)nc1C(=O)NC1CNCC(F)C1 (stereo not drawn) | enzyme activity | 1 µM | reference: DMSO control | remaining activity | 98.7%
COc1cc(Nc2nc(C)cc(-c3cnn4nc(OC)ccc34)n2)cc(C(F)(F)F)c1 | inhibitor | 1 µM | reference: control | remaining activity | 82%
CC(C)=CC1OC(C)(C)C2C=C3C(=O)C(Cl)=CC(O)C3C3C(O)C4OC4C(=O)C132 (stereo not drawn) | cell-free assay, competition with immobilised ligand | 10 µM | – | remaining binding | 90%
COc1cc(OC)c(F)c(/C=C/c2cnc3ccn(S(=O)(=O)c4cn(CCF)cn4)c3n2)c1F | – | 1000 nM | – | inhibition | 2.2%
CNC(=O)C1CCN(c2cc(C)c(F)cc2NC(=O)c2ccc(-c3cc(O)ccc3C)c(C)c2)CC1 | binding, competition with immobilised ligand | 1 µM | – | remaining binding | 100%
NC(=O)[C@@H](O)C[C@H]1CCc2sc3ncnc(O[C@H]4CC[C@H](N5CCOCC5)CC4)c3c21 | enzyme activity, inhibitor | 10 µM | – | inhibition | 19%
Cc1[nH]nc2c1N=C(c1ccccc1Cl)c1cnc(N3CCOCC3)cc1N2 | enzyme activity, inhibitor | 0.5 µM | – | inhibition | 94%
O=C(Cc1ccc(OCc2ccccc2)cc1)NC1(C(=O)O)CCN(C(=O)c2ccc(-c3cccc(Cl)c3)cc2)CC1 | enzyme activity, inhibitor | 10 µM | – | activity vs control | 78%
COc1c(OCCCN2CCOCC2)ccc2c1N=C(NC(=O)c1cnc(N)nc1)N1CCN=C21 | kinase activity, inhibitor | 1 µM | reference: untreated control | remaining activity | 116%
CCN1CCN(Cc2ccc(NC(=O)c3ccc(C)c(NC(=O)c4cncc(-c5cccs5)c4)c3)cc2C(F)(F)F)CC1 | binding, competition with immobilised ligand | 1 µM | – | remaining binding | 9%
CNC(=O)C[C@H](Cc1ccc(C#N)cc1)NC(=O)c1cc(-c2ccc(CN[C@H](C)c3ccc(C)cc3)o2)ccc1Cl | enzyme activity, inhibitor | 1 µM | – | activity vs control | 92%
Cc1ccc(C)c(-c2ccc3nc(NC(=O)C4CCCCC4)nn3c2)c1 | enzyme activity, Dundee kinase panel | 10 µM | – | remaining activity | 55%
COCC12C(=O)NC3C4(C(OC)CC1O)C1CC5(O)C(OC)C(O)C(OC(C)=O)(C1C5OC(=O)c1ccccc1)C3(O)C(OC)C24 (stereo not drawn) | kinase activity, inhibitor, ProQinase kinase profiling | 25 µM | reference: control | remaining activity | 103% and 116%
C=CC(=O)N1Cc2nc(-c3cc(-c4cc(Cl)cnc4Cl)c(F)cc3F)n(-c3ccncn3)c2C1 | cell-free assay | 1 µM | – | inhibition | 12.3%
CN1CCN(Cc2ccc(-c3ccc(CO[C@H]4CCC[C@@H]4NC(=O)c4cc(-c5cnn(C)c5)cnc4N)cc3)cc2)CC1 | enzyme activity, inhibitor | 0.1 µM | – | inhibition | 3%

For quick reference, copied from above:
Structure (SMILES) | test | conditions | scale | quantity | result
Cc1ccc(C)c(-c2ccc3nc(NC(=O)C4CCCCC4)nn3c2)c1 | enzyme activity, Dundee kinase panel | 10 µM | – | remaining activity | 55%
CNC(=O)C[C@H](Cc1ccc(C#N)cc1)NC(=O)c1cc(-c2ccc(CN[C@H](C)c3ccc(C)cc3)o2)ccc1Cl | enzyme activity, inhibitor | 1 µM | – | activity vs control | 92%
